Measured values collected from several papers.
Each numbered part is a random draw from the data of one study; scales do not carry over between parts.

Series 1
Target: Prothrombin, mature alpha-thrombin (F2, Homo sapiens, UniProt P00734)
Technique: aptamer microarray, sandwich
Form: DNA with 2'F-ANA
Medium: in vitro
Tested at: 200 nM
Setting: whole 15-mer aptamer, many near background
Together with: Cy3 exosite-II aptamer, 400 nM
Direction: higher = stronger binding
Strand: GGTTGGTGTGGTTGG
Modification | mean fluorescence intensity [a.u.]
2'F-ANA at 1 5 7 9 10 11 15 | 47.1
2'F-ANA at 1 2 3 7 8 9 10 11 14 | 59.1
2'F-ANA at 1 2 3 4 14 15 | 76.7
2'F-ANA at 4 7 9 11 12 14 15 | 106
2'F-ANA at 1 7 8 9 10 11 | 56.4
2'F-ANA at 6 7 9 11 13 | 324
2'F-ANA at 1 4 7 9 13 15 | 75.2
2'F-ANA at 4 5 7 12 13 14 15 | 44.7
2'F-ANA at 2 4 5 8 10 11 12 13 | 44.5
2'F-ANA at 2 4 5 8 12 14 | 46.9
2'F-ANA at 3 4 6 7 8 9 13 15 | 438
2'F-ANA at 2 3 9 10 11 14 | 291
2'F-ANA at 1 2 3 4 8 9 10 11 12 13 14 15 | 51.1
2'F-ANA at 1 2 7 8 9 10 12 13 14 15 | 51.1
2'F-ANA at 1 2 3 6 7 8 10 12 13 14 | 53.9
2'F-ANA at 1 2 4 6 9 13 | 86

Series 2
Target: RNA binding protein fox-1 homolog 2, RRM domain, GST-SBP tag (RBFOX2, Homo sapiens, UniProt O43251-10, residues 100-194)
Technique: RNA Bind-n-Seq
Form: RNA
Medium: in vitro
Tested at: 365 nM
Setting: natural RNA segment, single round, ends assumed
Relative to: no-protein control
Direction: higher = stronger binding
Target sequence (chain): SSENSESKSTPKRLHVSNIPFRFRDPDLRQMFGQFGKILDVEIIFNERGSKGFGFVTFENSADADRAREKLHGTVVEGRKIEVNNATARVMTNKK
Strand | RBNS enrichment (R)
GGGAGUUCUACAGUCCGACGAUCGGGCACUGGCGGUCAAGUGUGGAGGAGAGGGGUGGAGGCUGCCCCAUUGAGAUCUUCCUGCUGAGUCCUUUCCAGGGGCCAAUUUUGGAUGAGCAUGGAGCUGUCACCUCUGGAAUUCUCGGGUGCCAA | 2.46
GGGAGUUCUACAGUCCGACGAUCACCCCAUGAAGGGACCGCCCCCUCCCAAGGAUGGUCCCUUUGGGUGCAGCAGCAGAGGUCACCUCCUGACAUGCGCUCUGGGAAAGGUGGCAGAGGGCAGGACACCAUGAUGGAAUUCUCGGGUGCCAA | 0.289
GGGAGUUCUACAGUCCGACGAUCAAUAUCACUACUCUUUAACGAGUGCCAAAUCUUUUCCCACUUUUGCUCUUCCCCAAGGAACUGCUCCCACCUCAGCACGUGGAGGCCUCUCACGGUCCUCCUUCCUGGGAUGGAAUUCUCGGGUGCCAA | 0.524
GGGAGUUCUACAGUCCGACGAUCUCUUUAUAAGAGAAUAGAGGCAAAAGUAUAGAACUGAGGAUCAUUUGUAUUUUUGAGUUGGAAAUUAUGAAACUUCACCAUAUUAUGAUCAUACAUAUUUUGAAGAACAGUGGAAUUCUCGGGUGCCAA | 0.623
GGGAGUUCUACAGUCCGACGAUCGUGAGCCUUAAGCAUGUGAAUCCCCCCACAUGACAAGUGGGGAGACCCAGGGUAGGCUUUCCUUUGGAUCAUCUCCAAAUGGGAGUGCCAUGUGGCAGGAAAGAAGCACCUGGAAUUCUCGGGUGCCAA | 10.3
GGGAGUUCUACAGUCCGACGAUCUUAUAGCUAAAACACUAGGAUUUAUCUGCAGUGUUCAGGGAGAUAAUUCUGCCUUUAAUUGUCUAAAACAAAAACAAAACCAGCCAACCUAUGUUACACGUGAGAUUAAAUGGAAUUCUCGGGUGCCAA | 0.459
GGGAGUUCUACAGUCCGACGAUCAGAAUCAGCUAGCUAGCCAGGGGCCAUCCUGUGGGUCAGUAGAUGAGGUGUGUCCUGGCCCUGCGGAGAGAAGAGGCCUGUGGUUCAGCUGGCACGCUCUGCUCCAGGCUUGGAAUUCUCGGGUGCCAA | 0.609
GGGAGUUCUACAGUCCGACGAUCAGGUCCAGAUAAAUGAGGGUUAUCAGCUAACUGAUAUGUUAUCAUUGAGGUUCGUCAAUGAAUUUGUACAUUUCUAGUUCCCUUUGGUGAAGGGAAAAAUGAUUUUGCAAUGGAAUUCUCGGGUGCCAA | 0.526
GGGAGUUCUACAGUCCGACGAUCCUCCUGUCCAGCAGGUAGUGGGUGAAUGUGUGAAGGUCUUGCCUGAAUCCAUCAGGACUUGGGAAACAGAGAACCCUGUGGGGGCGGCUGUGGGGGAGGUCCCUGCCAGUUGGAAUUCUCGGGUGCCAA | 0.84
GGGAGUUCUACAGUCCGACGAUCUUUAAUUUUCAAGAUAAUUUAACUCUUGUCUAAUAUUCUUGUGUAAGGGAUUAAUUUUCAGACCCCUUUAAAAGUGAGUGCCAUAAAGAGUCAAUAUAUAGUGUUGAAGUUGGAAUUCUCGGGUGCCAA | 0.427
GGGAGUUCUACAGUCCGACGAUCUCCAGAAGCCUUUGUAUUGGUUAAAAAUUAUUUUCCAUUGCAGAAGCAGCUGGACUAUGCAAAAAGUAUUUCUCUGUCAGUUCCCCACUCUAUACCAAGGAUAUUAUUAAUGGAAUUCUCGGGUGCCAA | 1.12
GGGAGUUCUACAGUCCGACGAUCGAGGGCUAUUUGCCCACCUUCACUCUCCCUGCCUUCCCUUCUGAGUUGUGGUAGAGCAAAGACCCACAGGGGUUGGACCCAGACCUCUUAAAACCUGGCUGGACCCCCAUUGGAAUUCUCGGGUGCCAA | 0.759

Series 3
Target: PABPC1L2, full length, GST fusion (mouse, UniProt A0ABA7IW68)
Technique: RNAcompete
Form: RNA
Medium: in vitro
Tested at: 20 nM
Setting: 7-mer, probes averaged, single round
Relative to: mean of 7-mers
Direction: higher = stronger binding
Construct (chain): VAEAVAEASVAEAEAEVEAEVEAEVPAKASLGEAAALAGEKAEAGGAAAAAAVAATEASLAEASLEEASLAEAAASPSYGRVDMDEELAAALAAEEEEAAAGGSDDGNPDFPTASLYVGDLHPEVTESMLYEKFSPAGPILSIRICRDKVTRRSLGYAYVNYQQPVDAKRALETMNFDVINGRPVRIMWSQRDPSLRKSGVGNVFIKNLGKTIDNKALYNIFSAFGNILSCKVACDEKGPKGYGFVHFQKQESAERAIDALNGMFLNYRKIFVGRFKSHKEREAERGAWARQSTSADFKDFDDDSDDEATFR
Strand | 7-mer Z-score
CGUCCCC | -0.429
GGAGACG | 0.1
AGGAAUU | -0.0391
AAAACGA | 4.42
UCAAUGU | -0.287
CCUAUGC | -0.215
AUAGCUU | -0.215
GCUAUGG | -0.0246
AACGUAC | 0.0261
AGUACCG | -0.108
GAGACGC | 0.000733
CACCCAA | -0.0627
CCAUUGC | -0.307
CGUCAAU | -0.278
UAACAAU | 0.0515
AUACGAG | 0.0152
AUGAGUU | -0.291
CAGAUGA | 0.0732
CCUAAAU | 0.0986
UCUAGUG | -0.329
AGCGGAA | 0.508
UCUCAAC | -0.371
UCGCGCC | -0.3
UGACGGG | 0.1
GGAGCUC | -0.246

Series 4
Target: Histone acetyltransferase KAT6A, winged helix 1, GST fusion (KAT6A, Homo sapiens, UniProt Q92794, residues 1-85)
Technique: protein binding microarray
Form: double-stranded DNA, one strand shown
Medium: in vitro
Tested at: not given
Setting: 8-mer, flanks averaged, mean of 2 arrays, mostly near background
Relative to: not given
Direction: higher = stronger binding
Construct (chain): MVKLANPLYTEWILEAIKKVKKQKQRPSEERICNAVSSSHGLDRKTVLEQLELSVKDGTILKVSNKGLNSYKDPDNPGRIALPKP
Strand | E-score
AGCCGTGC | 0.362
ACAGCAAA | 0.0126
CCAGACAC | -0.319
ACGCCCAT | 0.0345
GCAGGCAA | -0.0464
CCTTGCAG | -0.0537
AGGCTGCC | -0.175
ACAGAGAA | 0.00345
ACTCTACC | -0.104
ACGCTTGA | 0.0993
CGACAGTA | 0.084
AAGATACA | -0.15
GGGGAAAA | -0.0844
AAGGGTAA | -0.113
ACCTCGTG | -0.038
AATAACTA | -0.126
CCCATCGA | -0.155
ACCAAGGG | -0.168
TAGATGAA | -0.163
CTTGTGTA | -0.132
CGTACTCA | 0.0522

Series 5
Target: Sal-like protein 4, full length isoform A (SALL4, Homo sapiens, UniProt Q9UJQ4, residues 1-1053)
UniProt Q9UJQ4, sequence (whole entry, looked up): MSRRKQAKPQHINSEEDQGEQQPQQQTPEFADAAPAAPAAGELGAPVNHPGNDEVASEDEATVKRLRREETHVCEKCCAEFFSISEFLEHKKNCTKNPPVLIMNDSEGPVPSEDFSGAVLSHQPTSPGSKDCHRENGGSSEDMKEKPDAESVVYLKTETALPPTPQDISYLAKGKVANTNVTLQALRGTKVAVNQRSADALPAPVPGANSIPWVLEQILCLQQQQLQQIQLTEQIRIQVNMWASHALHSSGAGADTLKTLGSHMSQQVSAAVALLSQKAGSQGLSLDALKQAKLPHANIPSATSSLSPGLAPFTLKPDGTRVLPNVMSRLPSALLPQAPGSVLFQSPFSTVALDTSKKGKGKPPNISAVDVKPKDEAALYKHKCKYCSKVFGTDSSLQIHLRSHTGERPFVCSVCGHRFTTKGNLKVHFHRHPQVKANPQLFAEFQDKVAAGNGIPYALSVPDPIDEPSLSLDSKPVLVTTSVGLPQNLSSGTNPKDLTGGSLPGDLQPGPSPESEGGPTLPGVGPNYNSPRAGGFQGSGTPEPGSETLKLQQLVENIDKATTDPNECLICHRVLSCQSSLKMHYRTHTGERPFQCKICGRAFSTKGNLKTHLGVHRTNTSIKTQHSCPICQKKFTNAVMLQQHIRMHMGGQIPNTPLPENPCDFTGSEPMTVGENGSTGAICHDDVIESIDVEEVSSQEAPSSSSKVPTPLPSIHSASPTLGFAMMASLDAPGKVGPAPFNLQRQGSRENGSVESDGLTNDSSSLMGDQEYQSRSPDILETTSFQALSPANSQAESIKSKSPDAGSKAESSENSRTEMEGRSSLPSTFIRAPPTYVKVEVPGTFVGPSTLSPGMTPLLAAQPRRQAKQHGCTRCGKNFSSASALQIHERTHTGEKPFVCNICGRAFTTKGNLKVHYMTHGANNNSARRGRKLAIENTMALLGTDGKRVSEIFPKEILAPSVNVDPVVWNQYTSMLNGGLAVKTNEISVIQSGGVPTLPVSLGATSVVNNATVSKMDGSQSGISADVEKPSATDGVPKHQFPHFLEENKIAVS
Technique: universal PBM
Form: double-stranded DNA, one strand shown
Medium: in vitro
Tested at: 600 nM
Setting: 8-mer, flanks averaged, mean of replicates
Direction: higher = stronger binding
Strand | E-score
ACGGGGCG | -0.225
GCATAGGA | -0.00559
AATTCTCC | -0.0231
AATCCAAC | 0.0667
CGGCCCAA | -0.252
TCCGCTAA | -0.138
AATTCTAT | 0.207
ATCGGAAG | 0.159
GTACAAAC | 0.0929
ATATTTTG | 0.427
AAGCTTGA | -0.0133
CAGCTCTA | -0.127
ATTCTATG | 0.178
GGGTAATA | 0.223
GGGTGAAC | -0.0806
GCATTGCA | -0.0218
ATGGTGTG | 0.0513
AAGTAACC | 0.0997
CTGAACCA | -0.109
ACCACTCA | -0.0524
ACTTGTGG | -0.0158
TCGATCGA | 0.051
AGAACCGC | -0.0712
ATTCGTAG | 0.0705
GGCCCTTA | -0.123

A few entries again (series 4):
Strand | E-score
CCTTGCAG | -0.0537
CGACAGTA | 0.084
GCAGGCAA | -0.0464
AAGGGTAA | -0.113
ACAGCAAA | 0.0126
AGGCTGCC | -0.175
ACCAAGGG | -0.168
CCAGACAC | -0.319
ACAGAGAA | 0.00345
ACCTCGTG | -0.038
CGTACTCA | 0.0522
ACTCTACC | -0.104
ACGCCCAT | 0.0345
AGCCGTGC | 0.362
ACGCTTGA | 0.0993
AATAACTA | -0.126
